{"data": "Assay results pooled from the literature", "note": "Every numbered part comes from another study and shows a few of its results, in no order. Values joined by “and” are separate records of one study, mostly repeats; a detail may differ.", "UniProt O14730, sequence (whole entry, looked up)": "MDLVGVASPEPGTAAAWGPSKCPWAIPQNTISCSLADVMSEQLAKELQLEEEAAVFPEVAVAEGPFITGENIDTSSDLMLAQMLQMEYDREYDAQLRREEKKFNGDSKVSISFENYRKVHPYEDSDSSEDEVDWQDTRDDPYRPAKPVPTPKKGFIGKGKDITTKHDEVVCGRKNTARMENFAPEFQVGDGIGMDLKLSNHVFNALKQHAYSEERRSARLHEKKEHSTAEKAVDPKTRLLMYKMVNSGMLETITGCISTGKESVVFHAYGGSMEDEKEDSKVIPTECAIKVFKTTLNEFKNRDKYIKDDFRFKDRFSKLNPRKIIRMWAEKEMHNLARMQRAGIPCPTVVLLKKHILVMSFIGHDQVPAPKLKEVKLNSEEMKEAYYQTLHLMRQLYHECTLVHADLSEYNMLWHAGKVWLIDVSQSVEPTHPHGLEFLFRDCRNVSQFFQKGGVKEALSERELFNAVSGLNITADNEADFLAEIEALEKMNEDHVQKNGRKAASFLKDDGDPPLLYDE", "UniProt P51957, sequence (whole entry, looked up)": "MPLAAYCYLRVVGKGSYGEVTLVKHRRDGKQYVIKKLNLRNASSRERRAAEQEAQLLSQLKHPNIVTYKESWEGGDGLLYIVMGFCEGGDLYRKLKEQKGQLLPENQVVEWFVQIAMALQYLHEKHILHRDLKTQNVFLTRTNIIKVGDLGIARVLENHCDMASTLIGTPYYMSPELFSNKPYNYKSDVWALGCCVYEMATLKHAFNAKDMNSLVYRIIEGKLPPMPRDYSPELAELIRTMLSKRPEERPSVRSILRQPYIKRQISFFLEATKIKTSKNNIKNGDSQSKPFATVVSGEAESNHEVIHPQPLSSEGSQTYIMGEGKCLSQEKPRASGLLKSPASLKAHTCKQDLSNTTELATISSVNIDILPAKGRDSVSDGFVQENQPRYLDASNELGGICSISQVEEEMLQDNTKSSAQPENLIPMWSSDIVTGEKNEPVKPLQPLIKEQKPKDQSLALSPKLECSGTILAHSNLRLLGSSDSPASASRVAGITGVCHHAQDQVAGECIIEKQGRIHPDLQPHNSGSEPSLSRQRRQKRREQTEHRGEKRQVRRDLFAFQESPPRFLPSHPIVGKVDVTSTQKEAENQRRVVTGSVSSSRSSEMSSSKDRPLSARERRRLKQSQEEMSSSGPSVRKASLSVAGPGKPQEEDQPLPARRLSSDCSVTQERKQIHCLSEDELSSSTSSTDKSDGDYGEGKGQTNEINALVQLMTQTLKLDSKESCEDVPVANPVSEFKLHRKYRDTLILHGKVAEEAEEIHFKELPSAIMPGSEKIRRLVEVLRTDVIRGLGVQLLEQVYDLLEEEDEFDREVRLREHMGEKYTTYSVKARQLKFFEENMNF", "UniProt P19525, sequence (whole entry, looked up)": "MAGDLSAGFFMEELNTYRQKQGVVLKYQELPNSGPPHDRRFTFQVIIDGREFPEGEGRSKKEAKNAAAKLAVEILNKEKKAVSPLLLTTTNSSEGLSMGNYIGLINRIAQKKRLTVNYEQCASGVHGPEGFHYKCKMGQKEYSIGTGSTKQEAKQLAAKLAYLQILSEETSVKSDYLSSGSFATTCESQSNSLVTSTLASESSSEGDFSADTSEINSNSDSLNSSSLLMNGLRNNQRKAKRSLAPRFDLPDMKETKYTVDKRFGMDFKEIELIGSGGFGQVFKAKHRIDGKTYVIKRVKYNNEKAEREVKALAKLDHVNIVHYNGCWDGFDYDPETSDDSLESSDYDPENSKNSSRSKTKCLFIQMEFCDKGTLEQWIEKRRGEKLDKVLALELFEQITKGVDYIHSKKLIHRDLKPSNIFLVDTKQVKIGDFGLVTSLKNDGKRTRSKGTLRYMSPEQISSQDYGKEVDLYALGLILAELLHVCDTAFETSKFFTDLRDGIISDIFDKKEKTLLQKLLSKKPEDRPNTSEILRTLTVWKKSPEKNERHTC", "UniProt P0C1S8, sequence (whole entry, looked up)": "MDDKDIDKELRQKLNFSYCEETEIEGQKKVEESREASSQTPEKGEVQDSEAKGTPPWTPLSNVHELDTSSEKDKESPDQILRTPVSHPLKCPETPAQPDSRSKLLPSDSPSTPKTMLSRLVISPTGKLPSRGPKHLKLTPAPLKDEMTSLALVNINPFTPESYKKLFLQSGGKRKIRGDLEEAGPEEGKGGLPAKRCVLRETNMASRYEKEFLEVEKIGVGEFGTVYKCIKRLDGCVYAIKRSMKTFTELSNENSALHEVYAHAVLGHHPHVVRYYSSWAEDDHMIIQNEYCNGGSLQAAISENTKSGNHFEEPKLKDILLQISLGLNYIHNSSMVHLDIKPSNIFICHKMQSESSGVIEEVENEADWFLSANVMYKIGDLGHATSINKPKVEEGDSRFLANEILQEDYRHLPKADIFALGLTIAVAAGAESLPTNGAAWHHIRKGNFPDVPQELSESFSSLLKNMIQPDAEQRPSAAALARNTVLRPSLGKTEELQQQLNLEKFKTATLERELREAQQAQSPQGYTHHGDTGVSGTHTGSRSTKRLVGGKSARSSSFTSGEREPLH", "UniProt Q9UQ88, sequence (whole entry, looked up)": "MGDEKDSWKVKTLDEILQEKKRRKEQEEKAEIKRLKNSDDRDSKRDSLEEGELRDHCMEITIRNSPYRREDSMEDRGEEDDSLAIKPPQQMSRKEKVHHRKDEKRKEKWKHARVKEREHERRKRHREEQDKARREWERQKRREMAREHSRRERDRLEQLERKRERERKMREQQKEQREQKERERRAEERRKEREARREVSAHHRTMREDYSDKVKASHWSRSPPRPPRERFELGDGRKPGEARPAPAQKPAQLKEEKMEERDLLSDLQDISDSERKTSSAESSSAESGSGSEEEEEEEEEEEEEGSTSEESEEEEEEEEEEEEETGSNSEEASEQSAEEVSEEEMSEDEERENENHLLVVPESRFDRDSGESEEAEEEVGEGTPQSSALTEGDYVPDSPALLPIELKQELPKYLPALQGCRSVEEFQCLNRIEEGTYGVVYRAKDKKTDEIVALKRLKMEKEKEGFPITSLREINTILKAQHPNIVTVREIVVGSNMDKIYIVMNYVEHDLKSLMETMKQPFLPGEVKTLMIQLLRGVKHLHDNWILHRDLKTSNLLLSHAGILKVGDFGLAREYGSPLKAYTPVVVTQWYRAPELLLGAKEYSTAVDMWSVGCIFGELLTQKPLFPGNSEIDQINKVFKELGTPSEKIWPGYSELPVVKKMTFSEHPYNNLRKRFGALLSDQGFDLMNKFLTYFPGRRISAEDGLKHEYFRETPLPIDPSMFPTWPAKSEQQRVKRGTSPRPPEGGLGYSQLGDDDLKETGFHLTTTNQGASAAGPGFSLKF", "UniProt P51812, sequence (whole entry, looked up)": "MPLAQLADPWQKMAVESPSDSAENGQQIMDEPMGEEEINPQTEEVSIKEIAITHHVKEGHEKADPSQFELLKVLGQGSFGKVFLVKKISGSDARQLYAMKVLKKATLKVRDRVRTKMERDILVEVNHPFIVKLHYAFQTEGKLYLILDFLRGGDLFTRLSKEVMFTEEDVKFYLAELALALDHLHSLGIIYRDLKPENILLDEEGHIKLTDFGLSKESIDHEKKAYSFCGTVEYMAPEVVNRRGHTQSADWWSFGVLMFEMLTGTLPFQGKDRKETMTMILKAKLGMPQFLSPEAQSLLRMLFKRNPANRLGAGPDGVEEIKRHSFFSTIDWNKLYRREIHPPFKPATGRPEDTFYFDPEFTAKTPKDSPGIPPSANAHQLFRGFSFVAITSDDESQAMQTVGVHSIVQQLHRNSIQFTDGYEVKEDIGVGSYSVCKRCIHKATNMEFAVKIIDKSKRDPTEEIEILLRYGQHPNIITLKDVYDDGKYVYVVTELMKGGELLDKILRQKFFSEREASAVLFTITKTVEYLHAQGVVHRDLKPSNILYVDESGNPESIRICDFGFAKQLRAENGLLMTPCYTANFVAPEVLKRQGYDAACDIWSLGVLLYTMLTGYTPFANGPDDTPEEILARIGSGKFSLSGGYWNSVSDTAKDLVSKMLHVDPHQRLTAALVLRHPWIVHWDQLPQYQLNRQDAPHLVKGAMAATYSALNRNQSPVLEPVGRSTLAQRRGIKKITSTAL"}
{"data": "Sample 1", "organism": "Sarcocystis neurona", "read-out": "parasite growth", "tested at": "10 µM", "setting": "secondary screen"}
{"SMILES": "CO[C@@H]1[C@@H](O[C@@H]2O[C@H](C)[C@@H](O[C@H]3C[C@@](C)(O)[C@@H](OC(=O)CC(C)C)[C@H](C)O3)[C@H](N(C)C)[C@H]2O)[C@@H](CC=O)C[C@@H](C)[C@@H](O)/C=C/C=C/C[C@@H](C)OC(=O)C[C@H]1OC(C)=O", "inhibition": "9.2%"}
{"SMILES": "NNC(=O)c1ccncc1", "inhibition": "-26.7%"}
{"SMILES": "CC(COc1ccccc1)N(CCCl)Cc1ccccc1 (stereo not drawn)", "inhibition": "-28.6%"}
{"data": "Sample 2", "target": "Sal-like protein 4, full length isoform A (SALL4, Homo sapiens, UniProt Q9UJQ4, residues 1-1053)", "technique": "universal PBM", "form": "double-stranded DNA, one strand shown", "matrix": "in vitro", "tested at": "600 nM", "setting": "8-mer, flanks averaged, mean of replicates", "direction": "higher = stronger binding", "UniProt Q9UJQ4, sequence (whole entry, looked up)": "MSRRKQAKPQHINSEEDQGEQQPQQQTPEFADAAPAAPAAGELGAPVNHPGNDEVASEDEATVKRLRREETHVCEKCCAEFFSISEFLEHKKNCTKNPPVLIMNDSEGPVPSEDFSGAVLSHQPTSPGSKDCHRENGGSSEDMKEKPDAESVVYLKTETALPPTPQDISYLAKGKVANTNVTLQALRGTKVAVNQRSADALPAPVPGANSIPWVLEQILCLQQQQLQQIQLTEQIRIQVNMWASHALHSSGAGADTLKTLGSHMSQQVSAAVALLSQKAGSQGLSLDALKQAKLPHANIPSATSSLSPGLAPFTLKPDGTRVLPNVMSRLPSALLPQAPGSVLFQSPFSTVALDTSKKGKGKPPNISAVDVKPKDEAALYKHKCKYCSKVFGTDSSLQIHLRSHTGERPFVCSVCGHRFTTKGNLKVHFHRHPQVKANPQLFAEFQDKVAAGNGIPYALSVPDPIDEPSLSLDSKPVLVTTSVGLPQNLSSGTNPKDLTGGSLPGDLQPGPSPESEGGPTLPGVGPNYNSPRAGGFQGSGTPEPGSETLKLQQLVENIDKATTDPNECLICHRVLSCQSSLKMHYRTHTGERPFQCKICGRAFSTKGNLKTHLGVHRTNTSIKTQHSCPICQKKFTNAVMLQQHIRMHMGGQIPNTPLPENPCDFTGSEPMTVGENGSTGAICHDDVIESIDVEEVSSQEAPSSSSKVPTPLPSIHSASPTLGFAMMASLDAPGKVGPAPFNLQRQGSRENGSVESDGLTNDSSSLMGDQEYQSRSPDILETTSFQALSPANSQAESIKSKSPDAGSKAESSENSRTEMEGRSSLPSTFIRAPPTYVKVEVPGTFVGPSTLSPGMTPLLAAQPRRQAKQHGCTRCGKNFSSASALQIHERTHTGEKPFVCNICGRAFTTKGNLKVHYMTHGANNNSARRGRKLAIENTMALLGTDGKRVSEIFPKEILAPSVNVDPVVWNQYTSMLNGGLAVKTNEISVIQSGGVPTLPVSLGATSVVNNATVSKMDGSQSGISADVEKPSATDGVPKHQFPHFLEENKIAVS"}
{"Oligonucleotide": "AATGTGAG", "E-score": 0.18}
{"Oligonucleotide": "CGGGATAG", "E-score": -0.194}
{"Oligonucleotide": "CCCATAAA", "E-score": 0.122}
{"Oligonucleotide": "CTGGCTCC", "E-score": -0.296}
{"Oligonucleotide": "AATAGTGG", "E-score": 0.19}
{"Oligonucleotide": "CGCTGACC", "E-score": -0.243}
{"Oligonucleotide": "GCACTCCA", "E-score": -0.145}
{"Oligonucleotide": "AAGTTCCG", "E-score": -0.0624}
{"data": "Sample 3", "SMILES": "Cc1nc(Cc2cccc(C(F)(F)F)c2)sc1-c1ccc(C(N)=O)nc1", "tested at": "1 µM"}
{"target": "CDK2 (Homo sapiens, UniProt P24941)", "read-out": "cell-free assay", "technique": "competition with immobilised ligand", "remaining binding": "100%"}
{"target": "EIF2AK2 (Homo sapiens, UniProt P19525)", "read-out": "binding", "technique": "competition with immobilised ligand", "remaining binding": "49%"}
{"target": "Ribosomal protein S6 kinase alpha-3, C-terminal kinase domain (RPS6KA3, Homo sapiens, UniProt P51812)", "read-out": "cell-free assay", "technique": "competition with immobilised ligand", "remaining binding": "99%"}
{"target": "NLK (Homo sapiens, UniProt Q9UBE8)", "read-out": "binding", "technique": "competition with immobilised ligand", "remaining binding": "100%"}
{"target": "NEK6 (Homo sapiens, UniProt Q9HC98)", "read-out": "cell-free assay", "technique": "competition with immobilised ligand", "remaining binding": "90%"}
{"target": "EGFR (Homo sapiens, UniProt P00533, L858R/T790M)", "read-out": "cell-free assay", "technique": "competition with immobilised ligand", "remaining binding": "87%"}
{"target": "NEK4 (Homo sapiens, UniProt P51957)", "read-out": "cell-free assay", "technique": "competition with immobilised ligand", "remaining binding": "100%"}
{"target": "Aurora kinase B (AURKB, Homo sapiens, UniProt Q96GD4)", "read-out": "cell-free assay", "technique": "competition with immobilised ligand", "remaining binding": "100%"}
{"target": "CDK11A (Homo sapiens, UniProt Q9UQ88)", "read-out": "binding", "technique": "competition with immobilised ligand", "remaining binding": "92%"}
{"target": "DCLK2 (Homo sapiens, UniProt Q8N568)", "read-out": "cell-free assay", "technique": "competition with immobilised ligand", "remaining binding": "100%"}
{"target": "ROCK2 (Homo sapiens, UniProt O75116)", "read-out": "cell-free assay", "technique": "competition with immobilised ligand", "remaining binding": "59%"}
{"target": "RIOK3 (Homo sapiens, UniProt O14730)", "read-out": "cell-free assay", "technique": "competition with immobilised ligand", "remaining binding": "100%"}
{"target": "PAK1 (Homo sapiens, UniProt Q13153)", "read-out": "cell-free assay", "technique": "competition with immobilised ligand", "remaining binding": "84%"}
{"target": "SIK1 (Homo sapiens, UniProt P57059)", "technique": "competition binding", "remaining binding": "100%"}
{"target": "CAMK1 (Homo sapiens, UniProt Q14012)", "read-out": "cell-free assay", "technique": "competition with immobilised ligand", "remaining binding": "86%"}
{"target": "MAPKAPK2 (Homo sapiens, UniProt P49137)", "read-out": "cell-free assay", "technique": "competition with immobilised ligand", "remaining binding": "100%"}
{"target": "WEE2 (Homo sapiens, UniProt P0C1S8)", "read-out": "cell-free assay", "technique": "competition with immobilised ligand", "remaining binding": "100%"}
{"target": "FLT3 (Homo sapiens, UniProt P36888, ITD)", "read-out": "cell-free assay", "technique": "competition with immobilised ligand", "remaining binding": "100%"}
{"target": "PRKG2 (Homo sapiens, UniProt Q13237)", "read-out": "cell-free assay", "technique": "competition with immobilised ligand", "remaining binding": "84%"}
{"data": "Sample 4", "cell line": "HaCaT", "tested at": "100 µM", "time": "36 h"}
{"SMILES": "C#C[C@]1(O)CC[C@H]2[C@@H]3CCC4=CC(=O)CC[C@@H]4[C@H]3CC[C@@]21C", "viability [%]": 99.9}
{"SMILES": "O=C(c1ccc(F)c(F)c1Nc1ccc(I)cc1F)N1CC(O)([C@@H]2CCCCN2)C1", "viability [%]": 12.3}
{"SMILES": "CC(=O)OCC(=O)[C@@]1(O)CC[C@H]2[C@@H]3CCC4=CC(=O)CC[C@]4(C)[C@H]3[C@@H](O)C[C@@]21C", "viability [%]": 80}
{"data": "Mixed results"}
{"SMILES": "CC(C)C[C@@H]1NC(=O)[C@H](CC(C)C)NC(=O)[C@H](CC(C)C)NC(=O)[C@H](C(C)C)NC(=O)[C@@H](Cc2cscn2)NC(=O)[C@H](CCC(=O)N2CCCC2)NC(=O)[C@H](C)NC1=O", "assay": "PRP chromatography", "setting": "linear fit, 1 mL", "endpoint": "logD 1,9-decadiene/water", "value": "-1.21 log units"}
{"SMILES": "CC(C)n1cnc(-c2ccc(F)cc2)c1-c1ncc(C(=O)Nc2ccc(N3CCN(C)CC3)cc2)[nH]1", "test system": "IPF patients", "setting": "30 mg once daily, adverse event incidence", "endpoint": "bile acids increased", "value": "0%"}
{"SMILES": "CC(C)C[C@@H]1NC(=O)[C@H](C)NC(=O)[C@H](Cc2cscn2)NC(=O)[C@H](C)NC(=O)[C@H](C(C)C)NC(=O)[C@H](CC(C)C)NC(=O)[C@@H](CC(C)C)NC1=O", "assay": "PRP chromatography", "setting": "linear fit, 1 mL", "endpoint": "logD 1,9-decadiene/water", "value": "-2.98 log units"}
{"SMILES": "Ic1ccc(Nc2nc(NCCN3CCOCC3)nc(N3CCOCC3)n2)cc1", "target or system": "HEK293T ATF4-firefly luciferase reporter", "assay": "integrated stress response, measured: ATF4", "setting": "10 µM, with: ISRIB", "scale": "relative to: DMSO", "endpoint": "reporter signal", "value": "86.5% and 82.4% and 89.1% and 87.7% and 109% and 91.1% and 76.7% and 92.4%"}
{"SMILES": "Cc1c(C(=O)NCC(C)c2ccccc2)oc2ccc3c(c12)C=CC1(CCCC1)O3 (stereo not drawn)", "test system": "human, microsomes or S9", "setting": "2 µM, 0.5 h", "endpoint": "remaining compound", "value": "35.5%"}
{"SMILES": "CC(=O)N[C@@H](Cc1c[nH]c2ccccc12)C(=O)N[C@@H](CCC(=O)C=[N+]=[N-])C(=O)OC(C)C", "assay": "measured: cystathionine", "test system": "mouse, EL4 tumour-bearing, EL4 tumour", "setting": "dose not given", "scale": "relative to: vehicle", "endpoint": "log2 fold change", "value": 0.0679}
{"SMILES": "O=C(COc1ccccc1P(=O)(O)O)NCC(F)(F)c1cccc(F)c1", "target or system": "INS-1", "setting": "concentration not given, low glucose", "endpoint": "ATP/ADP ratio", "value": "3.76 and 3.82 and 3.83"}
{"SMILES": "CN(C(=O)c1ccn2ncc(-c3ccc(C(N)=O)cc3)c2c1)c1ccc(C#N)cn1", "test system": "C57BL/6 IFN-γ knockout mouse, female, plasma", "setting": "oral, 10 mg/kg, 1 h", "endpoint": "plasma concentration", "value": "800 nM"}
{"SMILES": "O=C1CCC(N2Cc3cc(C4CCN(Cc5ccccc5)CC4)ccc3C2=O)C(=O)N1 (stereo not drawn)", "test system": "Sprague Dawley rat, male, plasma", "setting": "intravenous, 1.0 mg/kg", "endpoint": "CL", "value": "49.7 mL/min/kg and 54.7 mL/min/kg"}
{"note": "Repeated from above (sample 3):"}
{"target": "CDK2 (Homo sapiens, UniProt P24941)", "read-out": "cell-free assay", "technique": "competition with immobilised ligand", "remaining binding": "100%"}
{"target": "Aurora kinase B (AURKB, Homo sapiens, UniProt Q96GD4)", "read-out": "cell-free assay", "technique": "competition with immobilised ligand", "remaining binding": "100%"}
{"target": "NEK4 (Homo sapiens, UniProt P51957)", "read-out": "cell-free assay", "technique": "competition with immobilised ligand", "remaining binding": "100%"}
{"target": "EIF2AK2 (Homo sapiens, UniProt P19525)", "read-out": "binding", "technique": "competition with immobilised ligand", "remaining binding": "49%"}
{"target": "FLT3 (Homo sapiens, UniProt P36888, ITD)", "read-out": "cell-free assay", "technique": "competition with immobilised ligand", "remaining binding": "100%"}
